Assay results gathered from unrelated publications.
Each numbered part is a random draw from the data of one study; scales do not carry over between parts. Substitutions count along the parent as printed.

Series 1 — technique: DHFR PCA, deep sequencing; sample: yeast; with: (+)-ABA 1.4 µM; reference: wild-type fitted maximum; direction: higher = stronger binding
Target: ABI1, truncated, D143A, DHFR fusion (Arabidopsis thaliana)
Setting: methotrexate growth selection, single substitutions
Starting sequence: PYL1, truncated, DHFR fusion (Arabidopsis thaliana); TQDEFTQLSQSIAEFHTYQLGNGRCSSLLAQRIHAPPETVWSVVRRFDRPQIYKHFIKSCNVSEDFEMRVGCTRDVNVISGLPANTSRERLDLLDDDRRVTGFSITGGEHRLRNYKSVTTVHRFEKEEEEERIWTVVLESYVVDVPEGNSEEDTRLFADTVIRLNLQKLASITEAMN
Variant | relative binding score
Q2L | 78.8%
V44T | -10.7%
Y53D | 0.125%
L20C | 68.9%
L138A | -5.85%
R113D | 12.1%
F66I | 15.2%
E131L | 59.2%
T120H | 1.17%

Series 2 — target: CCNF, cyclin fold, Cln2 fusion (human); technique: yeast growth competition, sequencing; sample: yeast; setting: strong parent motif; reference: not given; direction: higher = stronger binding
Starting sequence: CDC6 docking peptide (human); TLKGRRLVFDNQL
Variant | normalised enrichment score
T1R | 9.76
G4P | 8.08
N11C | 8.94
T1M | 11.4
N11D | 8.27
T1Y | 9.49
R5A L7A | 0.218
K3N | 6.84

Series 3 — technique: protein-binding microarray; form: double-stranded DNA, one strand shown; sample: in vitro; tested at: 250 nM; setting: 60-bp whole probe; with: salmon DNA 0.4 mg/ml; reference: random background probes; direction: higher = stronger binding; all sequences stand within: GCCTAGCAC … GTCTTGATTCGCTTGACGCTGCTG
Target: Interferon regulatory factor 7, full length, phosphomimetic (IRF7, Homo sapiens, UniProt Q92985, residues 1-503, S101K/S471D/S472D/S475D/S476D/S477D/S483D/S484D/S487D)
Residues (chain): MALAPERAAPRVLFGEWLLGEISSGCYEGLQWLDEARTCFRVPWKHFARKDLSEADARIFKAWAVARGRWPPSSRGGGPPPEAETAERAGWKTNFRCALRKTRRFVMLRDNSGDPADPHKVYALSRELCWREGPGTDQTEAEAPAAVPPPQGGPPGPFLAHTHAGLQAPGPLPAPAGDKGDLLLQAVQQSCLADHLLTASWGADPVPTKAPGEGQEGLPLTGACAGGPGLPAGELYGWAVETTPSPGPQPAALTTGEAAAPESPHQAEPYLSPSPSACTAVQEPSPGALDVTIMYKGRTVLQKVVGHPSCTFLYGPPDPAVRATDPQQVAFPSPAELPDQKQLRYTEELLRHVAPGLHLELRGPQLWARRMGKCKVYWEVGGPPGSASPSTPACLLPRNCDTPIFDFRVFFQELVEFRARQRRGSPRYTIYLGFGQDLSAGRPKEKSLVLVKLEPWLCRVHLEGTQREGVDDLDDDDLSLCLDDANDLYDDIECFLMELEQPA
Sequence | log fluorescence
GACGGACTGCTTACCCTGACGTGCTAG | -0.324 z-score
GACGGTAACCTTTTCCTGACGTGCTAG | 0.153 z-score
TTAGTACTGAGTCTCGATTAGTGCTAG | 1.59 z-score
TTAGGTTTAGACACTGGGTTAGTGCTA | -0.141 z-score
GACGGACTGGGACTGGGTACGTGCTAG | -0.366 z-score
TTAGTTCTCCTTTTCCTTTAGTGCTAG | 2.39 z-score
GACGGTAGCGGACTGGGGACGTGCTAG | -1.04 z-score
GACGGACTGCTTCTACTGACGTGCTAG | -0.503 z-score
TTAGAACTGAGACTGCATTAGTGCTAG | 0.0629 z-score

Further values, each from its own experiment
Substance | target | assay | system | setting | how to read | measurement | value
PhoQ, residues 284 288 289 292 302 303 GASLAW | PhoP, residues 12 14 15 18 19 TPWLV (Escherichia coli, UniProt P23836) | Sort-seq, item: YFP reporter | E. coli | PhoQ-PhoP variant library, with: 10 µM Mg2+ | reference: high Mg2+ state, higher = stronger signaling | fold induction | 0.905

Excerpt of the above (series 2):
Variant | normalised enrichment score
T1R | 9.76
G4P | 8.08
